Assay results collected from several papers.
Compare with care: the assays were run in different laboratories. ± marks the error that the study gave. ≈ marks a conversion by molar mass, not a printed value.

SMILES | test | test system | setting | how to read | measurement | result
CNC(=O)N[C@]1(C)CCC[C@@]2(C)C3CC[C@@]4(C)C[C@]3(CCC21)CC4=O (single isomer, unassigned) |  | processed rat plasma | 40 ng/mL, 24 h, room temperature, autosampler stability | reference: nominal concentration | relative error | 10.2%
CC(C)C[C@H](NC(=O)C[C@H](O)[C@H](CC(C)C)NC(=O)[C@H](Cc1c[nH]cn1)NC(=O)CNC(=O)[C@@H](NC(=O)[C@H](C)NC(=O)[C@H](Cc1c[nH]c2ccccc12)NC(=O)[C@H](CCC(N)=O)NC(=O)[C@@H](Cc1ccccc1)NC(=O)CCNC(=O)CCNC(=O)CN1CCN(CC(=O)O)CCN(CC(=O)O)CCN(CC(=O)O)CC1)C(C)C)C(N)=O [lutetium-177 labelled] | MIRD dosimetry | mouse, PC-3 xenograft | intraperitoneal, 50 MBq |  | tumour absorbed dose | 11 Gy
O=C1CCc2ccc(NS(=O)(=O)c3cccc(Oc4ccccc4)c3)cc2N1 | rapid equilibrium dialysis | C57BL/6J mouse, brain |  |  | unbound fraction | 3.28%
CC(C)[C@H](NC(=O)CNC(=O)[C@H](CCC(N)=O)NC(=O)[C@H](C)N)C(=O)O | LC-MS/MS | human, plasma | intravenous, 10 mg/kg three times daily, day 1, first dose, 10 min infusion, geometric mean |  | AUC(0-inf) | 271 µg·h/L
CN1CCC=C(C(=O)O)C1 |  | human liver microsomes | 90 min, pH 7.4 | reference: compound over guvacine | formation ratio | ~30 fold
COC(=O)c1ccc(-c2cn(Cc3cc(Cl)ccc3O[11CH3])nn2)cc1 | PET, one-tissue compartment model | rhesus monkey, brain Insula | dose not given |  | distribution volume | 0.516 mL/cm³
CC/C=C\C/C=C\C/C=C\C/C=C\C/C=C\CCCCOC(CC)C(=O)O (stereo not shown) | [14C] label | male Wistar rat, subcutaneous fat | oral, 100 mg/kg, 4 h |  | radioactivity concentration | 25.3 µg equiv/g
Cn1c(=O)oc2ccc(-c3ccc(CC(C#N)NC(=O)C4CNCCCO4)c(F)c3)cc21 (stereo not shown) |  | human | dose not given, single ascending doses, all subjects |  | subjects with triglyceride increase | 23.3%
CCCC[C@H](NC(=O)CNC(=O)CNC(=O)CN1CCN(CC(=O)O)CCN(CC(=O)O)CC1)C(=O)N[C@H]1CC(=O)NCCCC[C@@H](C(N)=O)NC(=O)[C@H](Cc2c[nH]c3ccccc23)NC(=O)[C@H](CCCNC(=N)N)NC(=O)[C@@H](Cc2ccccc2)NC(=O)[C@H](Cc2c[nH]cn2)NC1=O [copper-64 labelled] |  | C57 mouse female B16/F1 melanoma, urine | intravenous, 0.037 MBq, 24 h |  | urinary excretion | 97.05 ± 0.55%
COc1cccc(C=NCCCN(C)CCN(C)CCCN=Cc2cccc(OC)c2[O-])c1[O-].[67Ga+3] |  | male rat, heart | iv, 1 min |  | uptake | 2 %ID/organ
CC(C)=CCC[C@](C)(O)[C@H]1CC[C@]2(C)[C@@H]1[C@H](O)C[C@@H]1[C@@]3(C)CC[C@H](O)C(C)(C)[C@@H]3CC[C@]12C |  | PEG 400 | 72 h, 25 °C |  | solubility | 15.2 ± 4.87 µg/mL (≈ 33 µM)
COc1ccc2cc(-c3ccc(-c4ccc(C)cn4)nc3)oc2c1 |  | acetonitrile | zinc(II) complex, added: quinine bisulfate reference |  | fluorescence quantum yield | 0.34
CCCCC/C=C/C=C/C(=O)NCC(C)C |  | rat plasma | 250 ng/mL, 30 d, -80 °C, long-term storage medium QC | reference: nominal concentration | relative error | 0.67%
NCCC(=O)N1Cc2ccccc2-c2c(nnn2-c2cn(C3OC(CO)C(O)C3O)c(=O)[nH]c2=O)-c2ccccc21 (mixture of isomers) | frequency-domain fluorometry | methanol |  |  | average fluorescence lifetime | 2.7 ns
CN1CCC[C@]1(C)/C=C/S(=O)(=O)NC(=O)Nc1c2c(cc3c1CCC3)CCC2 |  | human, plasma | oral, 50 mg single dose |  | CL/F | 1.2 L/h
CC(C)(O)c1ncc([S@](N)(=O)=NC(=O)Nc2c3c(cc4c2CCC4)CCC3)s1 |  | human, plasma | oral, 30 mg, single dose, fasted, healthy volunteers |  | Cmax | 1750 ng/mL
CC12CC(c3ccc(C(O)CO)cc3)C3=C4CCC(=O)C=C4CCC3C1CCC2(O)C(F)(F)C(F)(F)F (stereo not shown) |  | rat liver microsomes | 100 % absorption assumed |  | maximal oral bioavailability | 82%
C[C@H]1NSc2nc(=O)c3[nH]ccc3n2Cc2ccc(Cl)cc21 |  | Sprague-Dawley rat, male, plasma | oral, 125 mg/kg/day | reference: rat over human 15 mg | exposure ratio | 36
COc1ccc([C@@H]2CC(=O)c3c(O)cc(O[C@@H]4O[C@H](CO[C@@H]5O[C@@H](C)[C@H](O)[C@@H](O)[C@H]5O)[C@@H](O)[C@H](O)[C@H]4O)cc3O2)cc1O |  | rat plasma | 15.62 ng/mL, -80 °C, long-term storage | reference: nominal concentration | relative error | 9.43%
C#CCOc1ccc(/C=C2\SC(=O)N(CC(=O)NCc3ccccc3)C2=O)cc1 |  | neat PEG 400 | 298.15 K |  | standard Gibbs energy of solution | 14.6 kJ/mol
CC[C@H](C)[C@H](NC(=O)[C@H](C)NC(=O)CNC(=O)[C@H](Cc1ccccc1)NC(=O)[C@H](CC(N)=O)NC(=O)[C@H](CC(N)=O)NC(=O)[C@H](CO)NC(=O)[C@H](CO)NC(=O)[C@H](Cc1c[nH]cn1)NC(=O)[C@@H](NC(=O)[C@H](CC(C)C)NC(=O)[C@H](Cc1ccccc1)NC(=O)[C@H](CC(N)=O)NC(=O)[C@H](C)NC(=O)[C@H](CC(C)C)NC(=O)[C@H](CCCNC(=N)N)NC(=O)[C@H](CCC(N)=O)NC(=O)[C@@H](NC(=O)[C@H](C)NC(=O)[C@@H]1CSSC[C@H](NC(=O)[C@@H](N)CCCCN)C(=O)N[C@@H](CC(N)=O)C(=O)N[C@@H]([C@@H](C)O)C(=O)N[C@@H](C)C(=O)N[C@@H]([C@@H](C)O)C(=O)N1)[C@@H](C)O)C(C)C)C(=O)N[C@@H](CC(C)C)C(=O)N1CCC[C@H]1C(=O)N1CCC[C@H]1C(=O)N[C@H](C(=O)N[C@@H](CC(N)=O)C(=O)N[C@H](C(=O)NCC(=O)N[C@@H](CO)C(=O)N[C@@H](CC(N)=O)C(=O)N[C@H](C(=O)N[C@@H](Cc1ccc(O)cc1)C(N)=O)[C@@H](C)O)C(C)C)[C@@H](C)O | ion mobility mass spectrometry | nitrogen drift gas | dimer charge +5, second conformer |  | collision cross section | 929 ± 15.4 Å²
CC(C)C[C@H](NC(=O)[C@H](CO)NC(=O)[C@H](CCCNC(=N)N)NC(=O)[C@H](CC(=O)O)NC(=O)[C@H](CCC(=O)O)NC(=O)[C@H](C)NC(=O)[C@@H]1CCCN1C(=O)[C@H](C)NC(=O)[C@H](CCC(=O)O)NC(=O)[C@@H]1CCCN1C(=O)[C@@H]1CCCN1)C(N)=O |  | rhesus monkey | intranasal, dose not given, 10 weeks, dose escalation |  | body weight change | ≤ 5%
COc1ccc(CNC[C@@](O)(COCc2ccc(F)cc2)[C@@H]2CC[C@@H](C)C[C@H]2OCc2ccc(F)cc2)cc1 | PAMPA-GI | phosphatidylcholine-cholesterol membrane | 500 µM, 4 h, pH 6.5, 37 °C, 5% DMSO |  | permeability | 27.4 ± 1.6 ×10⁻⁶ cm/s
[11CH3]N1CCN(CCCOc2ccc(=O)n(-c3ccc(Cl)c(Cl)c3)n2)CC1 | radiotracer | mouse BALB/c male, liver | intravenous, 30 min |  | maximum uptake | 14.7 ± 2.03 %ID/cc
CC(C)c1cnc(-c2cc(Cl)ccc2F)cc1Nc1ccncc1C(=O)NC(CO)CO |  | patients, phase I monotherapy | oral, dose not given, grade 3 |  | patients with anaemia | 9.5%
CN1CC[C@H](c2c(O)cc(O)c3c(=O)cc(/C=C/c4c(Cl)cccc4Cl)oc23)[C@H](O)C1 | USP paddle dissolution | HCl buffer, 0.25% SLS | 30 min, pH 1.2 |  | dissolved drug | 99%
CC(C)[C@H](NC(=O)[C@@H]1CCCN1C(=O)[C@H](CCCNC(=N)N)NC(=O)[C@H](CS)NC(=O)[C@H](Cc1c[nH]c2ccccc12)NC(=O)[C@H](CCCNC(=N)N)NC(=O)[C@@H](Cc1ccccc1)NC(=O)[C@H](Cc1c[nH]cn1)NC(=O)[C@H](CCC(=O)O)NC(=O)[C@H](CS)NC(=O)[C@H](CS)NC(=O)CNC(=O)[C@@H]1CC(=O)N[C@@H](CCCNC(=N)N)C(=O)NCC(=O)N[C@@H](CC(=O)O)C(=O)N[C@H](Cc2ccc(O)cc2)C(=O)N1)C(N)=O [technetium-99m labelled] |  | C57 mice B16/F1 melanoma female, urine | iv, 0.037 MBq, 4 h |  | excretion | 78.8 ± 3.38%
Cc1ccc(OCC(=O)N(Cc2cccs2)c2ccn[nH]2)cc1 | LC-MS extracted ion chromatogram | dog liver microsomes | 10 µM, 60 min | reference: parent at time 0 min | relative peak area | 7.67%

A few entries again:
SMILES | test | test system | setting | how to read | measurement | result
CC(C)C[C@H](NC(=O)C[C@H](O)[C@H](CC(C)C)NC(=O)[C@H](Cc1c[nH]cn1)NC(=O)CNC(=O)[C@@H](NC(=O)[C@H](C)NC(=O)[C@H](Cc1c[nH]c2ccccc12)NC(=O)[C@H](CCC(N)=O)NC(=O)[C@@H](Cc1ccccc1)NC(=O)CCNC(=O)CCNC(=O)CN1CCN(CC(=O)O)CCN(CC(=O)O)CCN(CC(=O)O)CC1)C(C)C)C(N)=O [lutetium-177 labelled] | MIRD dosimetry | mouse, PC-3 xenograft | intraperitoneal, 50 MBq |  | tumour absorbed dose | 11 Gy
O=C1CCc2ccc(NS(=O)(=O)c3cccc(Oc4ccccc4)c3)cc2N1 | rapid equilibrium dialysis | C57BL/6J mouse, brain |  |  | unbound fraction | 3.28%
